Measurements pooled from the literature.
Lines come from different studies, so protocols differ. ± gives the spread as reported.
Organism: Salmonella typhimurium

| SMILES | test | test system | setting | scale | endpoint | result |
| --- | --- | --- | --- | --- | --- | --- |
| CC(C)N(C)N=O | mutagenicity, Ames plate incorporation | TA1537 | 500 µg/plate, 3 d, without S9, methanol | – | revertant colonies per plate | 11.3 ± 6 |
| O=[N+]([O-])c1ccc(N2CCC(NCCC(O)c3ccc(F)c4ccccc34)CC2)c(C(F)(F)F)c1 (stereo not drawn) | SOS response, SOS/umu test | TA1535/pSK1002, TGA medium | 0.001 mg/mL, 4 h, with: rat liver S9 | baseline: untreated | induction factor | 0.71 |
| Cc1cc(C(=O)NC(C)(C)COc2cccc3c2C(N)=NS(=O)(=O)N3)cc(C)n1 | Ames test, confirmatory | TA98 | 1000 µg/plate, with: rat liver S9 | baseline: solvent control | revertant ratio | 1 |
| O=[N+]([O-])c1ccc(N2CCN(CCC(O)c3ccc(F)cc3)CC2)c(C(F)(F)F)c1 (stereo not drawn) | SOS/umu test | TA1535/pSK1002 | 0.063 mg/mL, 4 h, without S9, lower range | – | survival | 109% |
| COc1cccc(-c2n[nH]c(SCc3ccccn3)n2)c1OC | Ames test, preincubation | TA1535 | 2.0 mg/plate, without S9 | – | revertant colonies per plate | 5 |
| OC(CCN1CC=C(c2ccc(F)cc2)CC1)c1ccc(F)c2ccccc12 (stereo not drawn) | SOS/umu test | TA1535/pSK1002 | 0.031 mg/mL, 4 h, without S9, full range | – | survival | 27.4% |
| CN(CC(C)(C)C)N=O | mutagenicity, Ames plate incorporation | TA98 | 5000 µg/plate, without S9, methanol | – | revertant colonies per plate | 20 ± 9 |
| N#C[C@@]1(n2ccc(N)nc2=O)O[C@H](CO)[C@@H](O)[C@H]1O | – | TA100 | 10 µM, without S9 | baseline: control | viability | 99% |
| O=NN1CCN(C2CCCC2)CC1 | mutagenicity, Ames plate incorporation | TA1537 | 1500 µg/plate, 3 d, without S9, methanol | – | revertant colonies per plate | 12 ± 3 |
| Fc1ccc(C2=CCNCC2)cc1 | genotoxicity, SOS/umu test | TA1535/pSK1002 | 0.063 mg/mL, 4 h, with S9, full range | – | induction factor | 0.9 |
| COCCN(CCOC)N=O | mutagenicity, Ames plate incorporation | TA1537 | 150 µg/plate, 3 d, without S9, methanol | – | revertant colonies per plate | 16 ± 3 |
| CC(=O)N1CCC(C(=O)N2CCN3C(=O)c4cc(-c5ccccc5)ccc4NC(=O)C3C2)CC1 (stereo not drawn) | – | TA1537 | 15.8 µg/plate, with: rat liver S9 | – | revertants per plate | 17 |

A few entries again:
| SMILES | test | test system | setting | scale | endpoint | result |
| --- | --- | --- | --- | --- | --- | --- |
| O=NN1CCN(C2CCCC2)CC1 | mutagenicity, Ames plate incorporation | TA1537 | 1500 µg/plate, 3 d, without S9, methanol | – | revertant colonies per plate | 12 ± 3 |
